Published values collected from several papers.
Every numbered part comes from another study and shows a few of its results, in no order.
UniProt P42336, sequence (whole entry, unmodified, looked up): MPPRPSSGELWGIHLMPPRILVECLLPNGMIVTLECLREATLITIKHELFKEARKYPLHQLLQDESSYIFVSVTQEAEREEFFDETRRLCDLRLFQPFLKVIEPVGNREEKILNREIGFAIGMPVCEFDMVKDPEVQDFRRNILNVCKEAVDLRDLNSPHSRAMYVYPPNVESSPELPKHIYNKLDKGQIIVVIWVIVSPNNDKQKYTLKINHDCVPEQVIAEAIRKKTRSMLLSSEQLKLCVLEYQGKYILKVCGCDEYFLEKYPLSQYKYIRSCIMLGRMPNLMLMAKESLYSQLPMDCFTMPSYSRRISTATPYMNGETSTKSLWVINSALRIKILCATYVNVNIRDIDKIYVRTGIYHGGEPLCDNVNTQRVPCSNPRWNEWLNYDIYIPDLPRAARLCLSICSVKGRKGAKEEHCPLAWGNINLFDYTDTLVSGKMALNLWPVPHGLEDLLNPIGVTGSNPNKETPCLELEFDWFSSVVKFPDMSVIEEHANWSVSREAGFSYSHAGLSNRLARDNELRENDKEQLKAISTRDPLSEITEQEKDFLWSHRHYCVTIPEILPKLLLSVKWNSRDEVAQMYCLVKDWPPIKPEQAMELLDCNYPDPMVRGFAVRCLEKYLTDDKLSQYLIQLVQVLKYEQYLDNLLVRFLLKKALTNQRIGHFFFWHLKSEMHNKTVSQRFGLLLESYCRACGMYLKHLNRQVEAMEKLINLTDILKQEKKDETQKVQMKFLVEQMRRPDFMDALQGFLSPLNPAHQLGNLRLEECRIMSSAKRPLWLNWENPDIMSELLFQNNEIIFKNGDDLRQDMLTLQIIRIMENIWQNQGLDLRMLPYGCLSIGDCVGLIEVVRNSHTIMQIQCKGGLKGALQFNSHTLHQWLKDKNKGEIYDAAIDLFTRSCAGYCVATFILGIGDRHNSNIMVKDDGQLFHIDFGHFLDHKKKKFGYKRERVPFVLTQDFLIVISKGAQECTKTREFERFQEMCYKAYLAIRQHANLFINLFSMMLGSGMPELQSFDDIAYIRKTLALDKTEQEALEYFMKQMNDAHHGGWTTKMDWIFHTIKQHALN
UniProt Q00535, sequence (whole entry, looked up): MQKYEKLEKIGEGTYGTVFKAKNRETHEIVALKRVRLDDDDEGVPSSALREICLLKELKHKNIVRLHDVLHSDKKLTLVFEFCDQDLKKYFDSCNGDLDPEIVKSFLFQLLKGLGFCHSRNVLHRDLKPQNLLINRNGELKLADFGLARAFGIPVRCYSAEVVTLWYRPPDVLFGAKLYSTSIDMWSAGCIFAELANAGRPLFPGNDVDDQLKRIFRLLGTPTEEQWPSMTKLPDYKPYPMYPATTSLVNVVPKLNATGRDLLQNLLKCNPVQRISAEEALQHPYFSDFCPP
UniProt Q13882, sequence (whole entry, looked up): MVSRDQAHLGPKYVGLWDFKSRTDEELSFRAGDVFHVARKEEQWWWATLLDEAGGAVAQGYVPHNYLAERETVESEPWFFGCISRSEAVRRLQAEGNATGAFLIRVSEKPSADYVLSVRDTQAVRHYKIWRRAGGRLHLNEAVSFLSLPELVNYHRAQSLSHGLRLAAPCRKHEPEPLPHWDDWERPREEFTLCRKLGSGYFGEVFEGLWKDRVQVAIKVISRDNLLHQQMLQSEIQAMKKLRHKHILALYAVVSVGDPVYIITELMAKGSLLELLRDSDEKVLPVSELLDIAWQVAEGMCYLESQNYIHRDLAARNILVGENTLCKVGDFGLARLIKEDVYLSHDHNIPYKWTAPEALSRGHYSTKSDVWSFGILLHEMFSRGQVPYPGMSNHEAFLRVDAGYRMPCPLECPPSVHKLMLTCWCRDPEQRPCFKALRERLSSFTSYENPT
UniProt P50750, sequence (whole entry, looked up): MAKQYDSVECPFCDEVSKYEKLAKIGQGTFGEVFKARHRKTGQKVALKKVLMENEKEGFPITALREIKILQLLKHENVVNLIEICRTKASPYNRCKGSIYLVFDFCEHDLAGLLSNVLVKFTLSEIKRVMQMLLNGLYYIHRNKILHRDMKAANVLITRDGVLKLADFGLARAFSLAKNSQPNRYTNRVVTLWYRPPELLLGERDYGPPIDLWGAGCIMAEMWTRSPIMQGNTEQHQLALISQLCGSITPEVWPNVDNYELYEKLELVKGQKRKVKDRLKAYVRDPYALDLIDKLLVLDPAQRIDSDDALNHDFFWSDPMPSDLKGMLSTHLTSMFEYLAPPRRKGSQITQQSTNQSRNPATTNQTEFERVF
UniProt Q8IVH8, sequence (whole entry, looked up): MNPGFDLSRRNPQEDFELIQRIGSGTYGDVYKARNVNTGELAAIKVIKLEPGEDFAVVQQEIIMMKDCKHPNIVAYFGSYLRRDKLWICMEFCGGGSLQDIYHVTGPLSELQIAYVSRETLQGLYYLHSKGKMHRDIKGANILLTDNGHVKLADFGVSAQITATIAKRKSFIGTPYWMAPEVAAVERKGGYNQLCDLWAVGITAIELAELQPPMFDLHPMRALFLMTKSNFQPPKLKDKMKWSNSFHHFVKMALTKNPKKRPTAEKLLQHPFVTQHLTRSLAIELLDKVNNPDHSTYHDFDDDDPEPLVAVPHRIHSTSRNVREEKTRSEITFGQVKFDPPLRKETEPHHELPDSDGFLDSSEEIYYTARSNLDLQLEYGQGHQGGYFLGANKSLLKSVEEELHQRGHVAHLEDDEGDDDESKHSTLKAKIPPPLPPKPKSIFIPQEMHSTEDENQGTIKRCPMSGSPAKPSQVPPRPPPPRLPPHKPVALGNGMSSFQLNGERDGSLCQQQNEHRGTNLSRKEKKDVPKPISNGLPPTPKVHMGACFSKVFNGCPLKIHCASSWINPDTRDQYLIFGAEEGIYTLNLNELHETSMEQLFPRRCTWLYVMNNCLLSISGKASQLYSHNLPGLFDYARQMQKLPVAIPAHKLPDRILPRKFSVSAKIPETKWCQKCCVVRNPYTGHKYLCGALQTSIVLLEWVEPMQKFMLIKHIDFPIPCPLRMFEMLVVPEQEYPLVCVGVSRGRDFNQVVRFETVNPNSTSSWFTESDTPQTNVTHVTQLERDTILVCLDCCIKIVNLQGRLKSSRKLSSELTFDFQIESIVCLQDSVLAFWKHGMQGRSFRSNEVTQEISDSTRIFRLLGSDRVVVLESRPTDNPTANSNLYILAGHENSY
UniProt O43318, sequence (whole entry, looked up): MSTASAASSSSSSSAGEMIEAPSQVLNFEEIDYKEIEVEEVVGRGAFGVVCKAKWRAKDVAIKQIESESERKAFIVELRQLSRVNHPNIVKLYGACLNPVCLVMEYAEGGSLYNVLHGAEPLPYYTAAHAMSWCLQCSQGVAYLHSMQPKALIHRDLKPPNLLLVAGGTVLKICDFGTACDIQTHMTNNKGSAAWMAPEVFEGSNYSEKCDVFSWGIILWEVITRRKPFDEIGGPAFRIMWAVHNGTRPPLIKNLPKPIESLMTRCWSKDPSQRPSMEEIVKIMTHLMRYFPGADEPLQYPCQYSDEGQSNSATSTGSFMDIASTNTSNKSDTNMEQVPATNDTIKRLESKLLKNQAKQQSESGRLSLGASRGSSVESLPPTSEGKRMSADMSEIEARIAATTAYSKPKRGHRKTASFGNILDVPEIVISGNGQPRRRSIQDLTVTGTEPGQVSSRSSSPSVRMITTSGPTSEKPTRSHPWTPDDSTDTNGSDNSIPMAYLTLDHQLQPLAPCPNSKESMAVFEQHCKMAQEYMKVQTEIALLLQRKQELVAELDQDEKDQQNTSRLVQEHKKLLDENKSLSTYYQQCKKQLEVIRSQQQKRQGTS
UniProt P21127, sequence (whole entry, looked up): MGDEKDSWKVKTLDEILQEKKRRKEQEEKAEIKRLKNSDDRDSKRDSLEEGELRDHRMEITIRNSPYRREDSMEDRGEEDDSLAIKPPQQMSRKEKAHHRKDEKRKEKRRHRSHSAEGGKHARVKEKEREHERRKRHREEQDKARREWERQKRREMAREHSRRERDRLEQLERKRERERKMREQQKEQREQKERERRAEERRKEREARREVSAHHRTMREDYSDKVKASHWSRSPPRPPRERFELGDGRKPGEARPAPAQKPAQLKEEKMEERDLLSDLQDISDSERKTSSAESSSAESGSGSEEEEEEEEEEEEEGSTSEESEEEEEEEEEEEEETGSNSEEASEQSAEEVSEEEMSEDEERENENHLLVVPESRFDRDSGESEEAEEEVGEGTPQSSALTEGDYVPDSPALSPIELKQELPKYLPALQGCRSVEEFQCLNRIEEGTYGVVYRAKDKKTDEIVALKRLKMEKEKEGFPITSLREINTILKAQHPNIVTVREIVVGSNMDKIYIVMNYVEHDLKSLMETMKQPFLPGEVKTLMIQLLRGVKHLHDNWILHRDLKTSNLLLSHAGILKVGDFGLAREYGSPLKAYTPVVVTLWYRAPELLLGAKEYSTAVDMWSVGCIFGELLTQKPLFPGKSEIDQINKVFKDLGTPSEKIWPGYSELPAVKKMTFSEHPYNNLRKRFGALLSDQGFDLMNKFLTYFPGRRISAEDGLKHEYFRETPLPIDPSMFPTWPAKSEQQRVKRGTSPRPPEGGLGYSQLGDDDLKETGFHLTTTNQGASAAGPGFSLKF

Study 1 — organism: Sarcocystis neurona; observed: parasite growth; tested at: 10 µM; setting: secondary screen
| Compound | inhibition |
| --- | --- |
| CC[C@H]1OC(=O)[C@H](C)[C@@H](O[C@H]2C[C@@](C)(OC)[C@@H](O)[C@H](C)O2)[C@H](C)[C@@H](O[C@@H]2O[C@H](C)C[C@H](N(C)C)[C@H]2O)[C@](C)(O)C[C@@H](C)CN(C)[C@H](C)[C@@H](O)[C@]1(C)O | -5.7% |
| CC1CCN(CCCC(=O)c2ccc(F)cc2)CC1.Cl | -33.9% |
| Cc1nc2ccccn2c(=O)c1CCN1CCC(C(=O)c2ccc(F)cc2)CC1 | 12.3% |

Study 2 — method: RNAcompete; form: RNA; medium: in vitro; tested at: 20 nM; setting: 7-mer, probes averaged, single round; reference: mean of 7-mers; direction: higher = stronger binding
Target: PABPC1L2, full length, GST fusion (mouse, UniProt A0ABA7IW68)
Residues (chain): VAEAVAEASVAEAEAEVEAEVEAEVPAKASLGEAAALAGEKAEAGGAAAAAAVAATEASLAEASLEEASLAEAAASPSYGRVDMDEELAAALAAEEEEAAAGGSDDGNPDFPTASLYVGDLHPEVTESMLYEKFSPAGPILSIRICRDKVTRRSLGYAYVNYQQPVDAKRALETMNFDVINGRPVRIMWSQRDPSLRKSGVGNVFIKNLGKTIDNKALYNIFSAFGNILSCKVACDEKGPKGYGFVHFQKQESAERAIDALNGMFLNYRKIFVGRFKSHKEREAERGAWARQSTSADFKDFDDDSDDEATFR
| Strand | 7-mer Z-score |
| --- | --- |
| GUUGCGA | -0.103 |
| UCCCAGA | -0.202 |
| GCAGGAG | 0.41 |
| AACUGGG | 0.414 |
| ACCUCAA | -0.00108 |
| UGUCUAG | -0.331 |
| CUGUAAU | -0.237 |
| AAAUUUU | 0.776 |

Study 3 — species: mouse, EL4 tumour-bearing; medium: EL4 tumour; dose: dose not given; reference: vehicle
SMILES: CC(=O)N[C@@H](Cc1c[nH]c2ccccc12)C(=O)N[C@@H](CCC(=O)C=[N+]=[N-])C(=O)OC(C)C
| test | log2 fold change |
| --- | --- |
| refers to: kynurenine | -0.0287 |
| refers to: N-acetylalanine | 0.548 |
| refers to: methionine | 0.225 |

Study 4 — observed: cell-free assay; method: competition with immobilised ligand; tested at: 1 µM
SMILES: Cc1c(NC(=O)c2cc(C(N)=O)nc3cc(F)ccc23)c(C(F)(F)F)nn1Cc1ccc(C(C)(C)C)cc1
| target | remaining binding [%] |
| --- | --- |
| Mitogen-activated protein kinase kinase kinase kinase 3 (MAP4K3, Homo sapiens, UniProt Q8IVH8) | 98 |
| Tyrosine-protein kinase ABL1, non-phosphorylated (ABL1, Homo sapiens, UniProt P00519, T315I) | 100 |
| Focal adhesion kinase 1 (PTK2, Homo sapiens, UniProt Q05397) | 100 |
| Phosphatidylinositol 4,5-bisphosphate 3-kinase catalytic subunit alpha isoform (PIK3CA, Homo sapiens, UniProt P42336, H1047L) | 100 |
| Insulin-like growth factor 1 receptor (IGF1R, Homo sapiens, UniProt P08069) | 100 |
| LIM domain kinase 1 (LIMK1, Homo sapiens, UniProt P53667) | 100 |
| Cyclin-dependent kinase 9 (CDK9, Homo sapiens, UniProt P50750) | 100 |
| Mitogen-activated protein kinase 6 (MAPK6, Homo sapiens, UniProt Q16659) | 79 |
| Mitogen-activated protein kinase kinase kinase 5 (MAP3K5, Homo sapiens, UniProt Q99683) | 100 |
| Phosphatidylinositol 4,5-bisphosphate 3-kinase catalytic subunit beta isoform (PIK3CB, Homo sapiens, UniProt P42338) | 100 |
| Phosphatidylinositol 4,5-bisphosphate 3-kinase catalytic subunit alpha isoform (PIK3CA, Homo sapiens, UniProt P42336, E545A) | 100 |
| Cyclin-dependent kinase 11B (CDK11B, Homo sapiens, UniProt P21127) | 100 |
| Receptor-type tyrosine-protein kinase FLT3 (FLT3, Homo sapiens, UniProt P36888, N841I) | 52 |
| Cyclin-dependent kinase 5 (CDK5, Homo sapiens, UniProt Q00535) | 76 |
| Mitogen-activated protein kinase kinase kinase 7 (MAP3K7, Homo sapiens, UniProt O43318) | 100 |
| Protein-tyrosine kinase 6 (PTK6, Homo sapiens, UniProt Q13882) | 100 |
| Tyrosine-protein kinase SYK (SYK, Homo sapiens, UniProt P43405) | 90 |

Mixed results
| SMILES | target or system | system | conditions | quantity | result |
| --- | --- | --- | --- | --- | --- |
| O=C(N[C@@H]1CC[C@H]2Oc3ccccc3N[C@H]2[C@@H]1O)c1ccccn1 |  | human, microsomes or S9 | 2 µM, 0.5 h | remaining compound | 83.6% |
| C[C@@H](O[C@H]1OCCN(Cc2n[nH]c(=O)[nH]2)[C@H]1c1ccc(F)cc1)c1cc(C(F)(F)F)cc(C(F)(F)F)c1 | HaCaT |  | 100 µM, 36 h | viability | 6.24% |
| COc1ccc(C2C(C(=O)N3CCN(c4ccccc4)CC3)CCC(=O)N2c2ccc3c(c2)OCO3)cc1 (centres unmarked) |  | human, microsomes or S9 | 2 µM, 0.5 h | remaining compound | 27.5% |
| CC(C)Oc1ccc2c(=O)c(-c3ccccc3)coc2c1 | HaCaT |  | 100 µM, 36 h | viability | 77.4% |

Excerpt of the above (study 4):
| target | remaining binding [%] |
| --- | --- |
| Protein-tyrosine kinase 6 (PTK6, Homo sapiens, UniProt Q13882) | 100 |
| Mitogen-activated protein kinase kinase kinase 7 (MAP3K7, Homo sapiens, UniProt O43318) | 100 |
| Tyrosine-protein kinase ABL1, non-phosphorylated (ABL1, Homo sapiens, UniProt P00519, T315I) | 100 |
| Receptor-type tyrosine-protein kinase FLT3 (FLT3, Homo sapiens, UniProt P36888, N841I) | 52 |
| Phosphatidylinositol 4,5-bisphosphate 3-kinase catalytic subunit alpha isoform (PIK3CA, Homo sapiens, UniProt P42336, E545A) | 100 |
| Cyclin-dependent kinase 9 (CDK9, Homo sapiens, UniProt P50750) | 100 |
